Measurements from different studies.
Protocols differ between the studies behind these lines. Several values in a cell are separate wells, animals, samples, runs or records. ± marks the error that the study gave.
Sequence of UniProt Q9UM07 (whole entry, looked up): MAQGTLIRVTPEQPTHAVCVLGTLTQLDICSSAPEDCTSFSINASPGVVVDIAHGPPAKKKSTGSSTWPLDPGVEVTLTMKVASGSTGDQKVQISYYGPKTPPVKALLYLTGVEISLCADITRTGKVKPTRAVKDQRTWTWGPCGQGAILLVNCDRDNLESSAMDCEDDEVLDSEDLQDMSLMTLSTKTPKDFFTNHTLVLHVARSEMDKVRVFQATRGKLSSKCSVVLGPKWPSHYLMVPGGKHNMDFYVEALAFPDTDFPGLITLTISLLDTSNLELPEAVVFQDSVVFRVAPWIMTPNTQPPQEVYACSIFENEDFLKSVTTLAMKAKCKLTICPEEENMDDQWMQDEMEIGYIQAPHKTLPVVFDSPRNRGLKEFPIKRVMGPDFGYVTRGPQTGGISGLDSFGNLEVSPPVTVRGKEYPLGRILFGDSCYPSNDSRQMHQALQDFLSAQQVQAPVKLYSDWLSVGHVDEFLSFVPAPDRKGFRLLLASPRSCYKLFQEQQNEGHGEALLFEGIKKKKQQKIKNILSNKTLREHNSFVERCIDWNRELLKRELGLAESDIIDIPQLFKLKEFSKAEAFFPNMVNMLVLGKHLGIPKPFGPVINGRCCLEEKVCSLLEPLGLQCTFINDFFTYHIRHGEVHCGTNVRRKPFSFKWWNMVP
Sequence of UniProt P33533 (whole entry, looked up): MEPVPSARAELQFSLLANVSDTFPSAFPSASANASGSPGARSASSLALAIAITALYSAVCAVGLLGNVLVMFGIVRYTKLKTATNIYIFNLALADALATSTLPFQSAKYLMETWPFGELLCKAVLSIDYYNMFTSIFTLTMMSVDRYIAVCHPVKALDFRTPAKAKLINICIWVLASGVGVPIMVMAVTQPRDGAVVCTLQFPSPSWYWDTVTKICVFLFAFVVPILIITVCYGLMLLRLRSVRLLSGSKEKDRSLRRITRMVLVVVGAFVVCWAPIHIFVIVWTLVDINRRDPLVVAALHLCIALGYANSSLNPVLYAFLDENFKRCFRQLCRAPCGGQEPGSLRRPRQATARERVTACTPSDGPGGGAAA
Sequence of UniProt P29322 (whole entry, looked up): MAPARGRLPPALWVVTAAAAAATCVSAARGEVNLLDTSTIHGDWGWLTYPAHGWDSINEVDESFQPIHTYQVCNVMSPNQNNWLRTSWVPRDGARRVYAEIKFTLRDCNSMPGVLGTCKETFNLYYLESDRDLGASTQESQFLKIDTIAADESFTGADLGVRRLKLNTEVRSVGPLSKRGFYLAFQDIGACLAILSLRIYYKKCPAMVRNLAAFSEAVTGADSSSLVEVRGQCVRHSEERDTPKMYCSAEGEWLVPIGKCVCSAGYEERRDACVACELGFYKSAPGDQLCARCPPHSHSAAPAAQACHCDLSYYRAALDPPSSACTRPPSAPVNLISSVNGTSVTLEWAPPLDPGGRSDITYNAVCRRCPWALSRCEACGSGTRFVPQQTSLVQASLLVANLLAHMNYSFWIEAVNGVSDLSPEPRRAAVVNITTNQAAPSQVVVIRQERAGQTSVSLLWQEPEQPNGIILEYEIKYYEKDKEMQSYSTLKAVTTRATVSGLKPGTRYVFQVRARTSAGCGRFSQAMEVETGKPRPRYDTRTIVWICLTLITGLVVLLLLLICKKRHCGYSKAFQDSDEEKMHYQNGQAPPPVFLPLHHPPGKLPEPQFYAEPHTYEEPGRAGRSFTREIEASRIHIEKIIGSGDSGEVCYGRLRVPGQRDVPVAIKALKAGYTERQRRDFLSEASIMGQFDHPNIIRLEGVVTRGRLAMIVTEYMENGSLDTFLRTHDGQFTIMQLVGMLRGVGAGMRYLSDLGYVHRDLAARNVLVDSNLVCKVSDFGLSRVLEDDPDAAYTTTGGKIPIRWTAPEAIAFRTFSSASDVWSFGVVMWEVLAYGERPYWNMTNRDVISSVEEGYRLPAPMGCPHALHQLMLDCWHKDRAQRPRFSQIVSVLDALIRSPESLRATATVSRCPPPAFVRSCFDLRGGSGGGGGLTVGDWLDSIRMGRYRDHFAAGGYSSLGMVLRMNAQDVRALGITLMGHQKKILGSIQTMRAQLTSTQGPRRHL
Sequence of UniProt P30291 (whole entry, looked up): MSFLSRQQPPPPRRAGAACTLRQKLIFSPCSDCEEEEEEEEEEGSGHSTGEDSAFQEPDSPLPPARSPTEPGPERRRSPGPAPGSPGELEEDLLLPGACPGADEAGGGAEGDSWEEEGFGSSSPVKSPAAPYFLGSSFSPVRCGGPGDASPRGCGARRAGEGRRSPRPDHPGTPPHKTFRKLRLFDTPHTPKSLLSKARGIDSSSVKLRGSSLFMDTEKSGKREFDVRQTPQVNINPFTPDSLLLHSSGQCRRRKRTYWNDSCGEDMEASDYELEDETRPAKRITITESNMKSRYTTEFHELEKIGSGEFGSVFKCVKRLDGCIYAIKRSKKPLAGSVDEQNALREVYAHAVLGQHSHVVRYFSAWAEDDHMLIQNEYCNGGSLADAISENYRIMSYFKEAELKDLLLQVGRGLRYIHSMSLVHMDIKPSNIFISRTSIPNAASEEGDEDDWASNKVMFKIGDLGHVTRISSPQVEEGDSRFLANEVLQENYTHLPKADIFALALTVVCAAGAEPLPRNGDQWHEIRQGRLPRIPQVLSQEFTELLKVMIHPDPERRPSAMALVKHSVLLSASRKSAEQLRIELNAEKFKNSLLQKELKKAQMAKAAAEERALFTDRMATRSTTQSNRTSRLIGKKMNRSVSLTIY
Sequence of UniProt P38489 (whole entry, looked up): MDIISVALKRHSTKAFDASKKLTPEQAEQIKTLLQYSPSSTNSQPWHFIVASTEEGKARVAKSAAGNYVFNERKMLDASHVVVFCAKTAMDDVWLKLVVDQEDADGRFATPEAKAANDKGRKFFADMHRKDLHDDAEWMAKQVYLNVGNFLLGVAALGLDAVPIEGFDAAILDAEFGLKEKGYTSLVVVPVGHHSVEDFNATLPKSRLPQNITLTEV
Sequence of UniProt P53778 (whole entry, looked up): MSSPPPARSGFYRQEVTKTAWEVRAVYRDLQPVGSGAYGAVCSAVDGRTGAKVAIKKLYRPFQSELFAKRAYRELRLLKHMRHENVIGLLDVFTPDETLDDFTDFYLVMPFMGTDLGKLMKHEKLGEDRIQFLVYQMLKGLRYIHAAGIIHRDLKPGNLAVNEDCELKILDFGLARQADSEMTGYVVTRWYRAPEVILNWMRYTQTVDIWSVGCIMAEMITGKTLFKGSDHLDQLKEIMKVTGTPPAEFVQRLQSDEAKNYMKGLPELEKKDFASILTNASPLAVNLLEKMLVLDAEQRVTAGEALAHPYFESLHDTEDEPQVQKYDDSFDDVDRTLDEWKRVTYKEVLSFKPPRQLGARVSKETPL
Sequence of UniProt Q8C167 (whole entry, looked up): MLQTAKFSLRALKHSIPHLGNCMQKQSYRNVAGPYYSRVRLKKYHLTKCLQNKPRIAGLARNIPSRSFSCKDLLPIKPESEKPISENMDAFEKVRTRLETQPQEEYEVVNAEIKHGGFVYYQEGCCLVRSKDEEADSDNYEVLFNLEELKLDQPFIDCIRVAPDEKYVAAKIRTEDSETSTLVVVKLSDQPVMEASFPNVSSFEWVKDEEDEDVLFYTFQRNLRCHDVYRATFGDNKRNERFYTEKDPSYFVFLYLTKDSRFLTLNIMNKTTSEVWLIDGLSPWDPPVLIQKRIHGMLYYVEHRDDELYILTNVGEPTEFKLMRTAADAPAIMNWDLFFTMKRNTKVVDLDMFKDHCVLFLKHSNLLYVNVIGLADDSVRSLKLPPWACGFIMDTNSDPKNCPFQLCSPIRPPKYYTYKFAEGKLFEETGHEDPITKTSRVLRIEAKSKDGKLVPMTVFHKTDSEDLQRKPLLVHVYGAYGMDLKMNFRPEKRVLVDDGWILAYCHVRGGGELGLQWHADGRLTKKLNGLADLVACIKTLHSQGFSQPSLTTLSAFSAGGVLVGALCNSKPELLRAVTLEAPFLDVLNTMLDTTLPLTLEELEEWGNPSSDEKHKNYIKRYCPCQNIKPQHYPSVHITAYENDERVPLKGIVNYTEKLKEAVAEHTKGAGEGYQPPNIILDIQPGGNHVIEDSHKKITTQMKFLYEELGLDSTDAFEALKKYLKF
Sequence of UniProt Q9HBY8 (whole entry, looked up): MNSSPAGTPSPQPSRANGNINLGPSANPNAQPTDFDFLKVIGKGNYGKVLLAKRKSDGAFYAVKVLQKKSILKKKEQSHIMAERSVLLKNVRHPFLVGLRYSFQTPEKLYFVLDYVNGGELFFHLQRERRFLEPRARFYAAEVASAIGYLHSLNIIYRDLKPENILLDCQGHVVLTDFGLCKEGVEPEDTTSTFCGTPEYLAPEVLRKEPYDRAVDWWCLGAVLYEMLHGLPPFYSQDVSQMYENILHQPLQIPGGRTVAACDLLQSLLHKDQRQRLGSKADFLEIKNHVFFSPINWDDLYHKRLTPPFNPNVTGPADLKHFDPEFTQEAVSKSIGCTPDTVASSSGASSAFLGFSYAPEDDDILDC
Sequence of UniProt O15393 (whole entry, looked up): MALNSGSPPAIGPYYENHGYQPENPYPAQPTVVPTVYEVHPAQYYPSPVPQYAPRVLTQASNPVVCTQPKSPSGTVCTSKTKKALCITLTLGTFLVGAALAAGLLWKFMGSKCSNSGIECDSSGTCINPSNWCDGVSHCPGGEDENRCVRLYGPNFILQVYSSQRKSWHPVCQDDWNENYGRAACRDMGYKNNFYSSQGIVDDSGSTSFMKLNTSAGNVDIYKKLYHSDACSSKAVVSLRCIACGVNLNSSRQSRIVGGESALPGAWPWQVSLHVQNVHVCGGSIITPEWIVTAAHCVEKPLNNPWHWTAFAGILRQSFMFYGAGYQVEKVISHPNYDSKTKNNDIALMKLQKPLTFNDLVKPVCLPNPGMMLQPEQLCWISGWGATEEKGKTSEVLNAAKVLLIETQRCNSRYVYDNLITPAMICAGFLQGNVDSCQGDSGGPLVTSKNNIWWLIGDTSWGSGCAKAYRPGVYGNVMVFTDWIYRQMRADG

CN(C)CCCSC(=S)N1CCN(C(=O)/C=C/c2coc3ccccc3c2=O)CC1
MST response (Nucleoprotein (N, Tomato spotted wilt virus, UniProt P25999, Y184A); binding, microscale thermophoresis; 0.9766 µM; dose series): 837 a.u.

CN(C)[C@H]1C[C@@]23CC[C@@]4(O2)C(=CC[C@]2(C)[C@@H](c5ccc6ccncc6c5)CC[C@H]24)C=C3[C@@H](O)[C@@H]1O
inhibition (WEE1 (Homo sapiens, UniProt P30291); ATP probe labelling, inhibitor, KiNativ profiling; 1 µM): -11.2%

CC[C@@H](C)[C@@H]1CN([C@@H](CC2CCCCC2)CN2CCC[C@H]2CN2CCNC[C@@H]2Cc2ccc3ccccc3c2)CCN1CCC12CC3CC(CC(C3)C1)C2
remaining binding (Oprd1 (Rattus norvegicus, UniProt P33533); radioligand binding; rat brain membranes; 500 nM, pH 7.5, 25 °C, with: 2 nM [3H]DPDPE): 91.1%

N=C(N)N1CCc2ccccc2C1
ligand efficiency (Transmembrane protease serine 2, peptidase domain (TMPRSS2, Homo sapiens, UniProt O15393)): 0.42 kcal/mol

N[C@H](C(=O)N1CCCC1)C1CCN(c2nccc3c(-c4ncc(Cl)cc4Cl)cccc23)CC1
kcat (PADI4 (Homo sapiens, UniProt Q9UM07); enzyme activity; 0.0983 µM, low-affinity site, with: Ca2+ 0.25 mM): 0.224 s⁻¹ and 0.193 s⁻¹

O=C1NC2(CC2)COc2ncc(F)cc2[C@H]2COCCN2c2ccn3ncc1c3n2
serum urea (Sprague-Dawley rat, female, serum; oral, 10 mg/kg/day, end of recovery, 4-week subacute toxicity): 4.15 ± 0.55 mmol/L

N[C@H](Cc1ccccc1)P(=O)(O)O
reaction rate reduction (PAL1 (Petroselinum crispum, UniProt P24481); L-Phe deamination, inhibitor, UV steady-state kinetics; 1000 µM, with: L-Phe 1 mM): 22%

CC[C@H](C)[C@H](NC(=O)[C@H](CO)NC(=O)[C@H](Cc1ccc(O)cc1)NC(=O)[C@H](Cc1ccc(O)cc1)NC(=O)[C@H](CC(N)=O)NC(=O)CNC(=O)[C@H](CO)NC(=O)[C@H](Cc1ccc(O)cc1)NC(=O)[C@H](CO)NC(=O)[C@H](CO)NC(=O)[C@H](CC(N)=O)NC(=O)COCCOCCNC(=O)CN1CCN(CC(=O)O)CCN(CC(=O)O)CCN(CC(=O)O)CC1)C(=O)N[C@@H](CC(C)C)C(N)=O [copper-64 labelled]
tumour uptake (dynamic PET; mouse, tamoxifen-induced PDAC, tumor; intravenous, 0.1 µg/mouse, 7.5 min): 12 %ID/mL

C[C@@H]1NC(=O)[C@H](CCCNC(=N)N)NC(=O)[C@H](Cc2ccc3ccccc3c2)NC(=O)[C@H]2CCCCN2C(=O)[C@@H]([C@H](C)O)NC(=O)[C@H](Cc2ccc(F)cc2)NC(=O)[C@@H](Cc2ccc(F)cc2)NC(=O)c2cc3cc(c2)C(=O)NC[C@H](NC(=O)[C@@H](Cc2ccccc2)NC1=O)C(=O)N[C@@H](Cc1ccccc1)C(=O)N[C@@H](Cc1ccc2ccccc2c1)C(=O)N[C@@H](CCCNC(=N)N)C(=O)N[C@@H](CCCNC(=N)N)C(=O)N[C@@H](CCCNC(=N)N)C(=O)N[C@@H](CCCNC(=N)N)C(=O)N[C@H](C(=O)N[C@@H](CCCCN)C(N)=O)CNC3=O
isomerase activity (FKBP1A (Homo sapiens, UniProt P62942); inhibitor; up to 5 µM, with: Suc-Ala-Glu-Pro-Phe-pNA): no effect

CS(C)(=O)=Nc1ccc(-c2ccc(-c3nc4cc(O[C@@H]5CO[C@H]6[C@@H]5OC[C@H]6O)[nH]c4cc3F)cc2)cc1
inhibition (SGK2 (Homo sapiens, UniProt Q9HBY8); enzyme activity, inhibitor; 10 µM): -6%

CCOC(=O)[C@@H]1Cc2c(cc([N+](=O)[O-])cc2[N+](=O)[O-])[C@H](O)[C@]12C(=O)Nc1ccc(Br)cc12
remaining binding (ERBB4 (Homo sapiens, UniProt Q15303); binding, competition with immobilised ligand; 0.1 µM): 58%

CC(C)[C@H]1NC(=O)C[C@H]2/C=C/CCSSC[C@@H](NC1=O)C(=O)N[C@H](Cc1cccc3ccccc13)C(=O)NCC(=O)O2
inhibition (EPHA8 (Homo sapiens, UniProt P29322); enzyme activity, inhibitor; 10 µM): 7.7%

COCC1CCCCN1C(=O)n1cc(C(O)(c2ccccc2)c2ccccc2)nn1 (stereo not drawn)
activity ratio (Prolyl endopeptidase-like (Prepl, Mus musculus, UniProt Q8C167); enzyme activity, inhibitor, competitive ABPP-SILAC, refers to: Prepl; mouse T-cells; concentration not given, 4 h, treated in situ; reference: DMSO): 1.25

Cc1ccc(N2CC3CCC(C2)N3C)cc1C(=O)N[C@H](C)c1cc(-c2cnn(C)c2)nc2ccccc12
remaining activity (CAPN1 (Homo sapiens, UniProt P07384); enzyme activity; 30 µM, 0.5 h): 113%

Cc1cc(C(=O)Nc2nc3cccc(C)c3n2[C@H]2CCCCN(C(=O)/C=C/CN(C)C)C2)ccn1
survival (Trypanosoma brucei; CLK1 C215S overexpressing; 5 x EC50): 105% and 102%

CC(C)(C)C(=O)OCOP(=O)(OCOC(=O)C(C)(C)C)C1CCCN(O)C1=O (stereo not drawn)
log TGI (MDA-MB-435): -4.65 log M

O=C1NC(=O)c2c1c1cc(F)c[n+]3c1c1c2c2cc(O)ccc2[n]1[Ru-4]312([N]=C=S)[S+]3CC[S+]1CC[S+]2CC3 (stereo not drawn)
remaining activity (MAPK12 (Homo sapiens, UniProt P53778); enzyme activity; 100 nM, human enzyme, with: 10 µM ATP; reference: untreated): 102%

COc1ccccc1-c1n[nH]c2nc(N[C@H]3CC[C@H](NS(=O)(=O)CC(C)C)CC3)ncc12
relative abundance (bead binding, competition bead pull-down, refers to: LINJ.25.2450; Leishmania donovani extract; 10 µM; reference: vehicle): 1.08

Cc1sc2c(c1C)C(c1ccc(Cl)cc1)=NC(CC(=O)OC(C)(C)C)c1nnc(C)n1-2 (stereo not drawn)
remaining binding (HTR1A (Homo sapiens, UniProt P08908); ligand displacement, radioligand; 1 µM): 114%

COc1ccccc1-c1n[nH]c2nc(NC3CCN(C(=O)Cc4ccc(F)cc4F)CC3)ncc12
relative abundance (bead binding, competition bead pull-down, refers to: LINJ.19.1560; Leishmania donovani extract; 10 µM; reference: vehicle): 1.01

COc1c(N2CC3CCCN(C(=O)OCc4cnc([N+](=O)[O-])s4)C3C2)c(F)cc2c(=O)c(C(=O)O)cn(C3CC3)c12 (stereo not drawn)
kcat (nfsB (Escherichia coli K-12, UniProt P38489); substrate; with: NADH 100 µM): 3.65 s⁻¹

A few entries again:
CC[C@H](C)[C@H](NC(=O)[C@H](CO)NC(=O)[C@H](Cc1ccc(O)cc1)NC(=O)[C@H](Cc1ccc(O)cc1)NC(=O)[C@H](CC(N)=O)NC(=O)CNC(=O)[C@H](CO)NC(=O)[C@H](Cc1ccc(O)cc1)NC(=O)[C@H](CO)NC(=O)[C@H](CO)NC(=O)[C@H](CC(N)=O)NC(=O)COCCOCCNC(=O)CN1CCN(CC(=O)O)CCN(CC(=O)O)CCN(CC(=O)O)CC1)C(=O)N[C@@H](CC(C)C)C(N)=O [copper-64 labelled]
tumour uptake (dynamic PET; mouse, tamoxifen-induced PDAC, tumor; intravenous, 0.1 µg/mouse, 7.5 min): 12 %ID/mL
